Measured values from different studies.
± gives the spread as reported.

SMILES	target or system	test	test system	setting	quantity	result
CC(C)[C@H](NC(=O)CNC(=O)CNC(=O)[C@H](Cc1ccc(O)cc1)NC(=O)[C@H](CS)NC(=O)[C@@H](NC(=O)[C@H](Cc1c[nH]c2ccccc12)NC(=O)[C@H](Cc1ccccc1)NC(=O)[C@H](CS)NC(=O)[C@H](Cc1c[nH]c2ccccc12)NC(=O)[C@@H](N)CCCNC(=N)N)C(C)C)C(=O)N[C@@H](CS)C(=O)N[C@@H](Cc1ccc(O)cc1)C(=O)N[C@@H](CCCNC(=N)N)C(=O)N[C@@H](CCCNC(=N)N)C(=O)N[C@@H](CS)C(=O)N[C@@H](CCCNC(=N)N)C(=O)O	Escherichia coli	broth microdilution	ATCC 25922, Mueller-Hinton broth	16 to 20 h, 37 °C	MIC	2.2 µg/mL
CC[C@H](C)[C@@H]1NC(=O)CNC(=O)[C@H](CCCCN)NC(=O)[C@H](Cc2ccc(O)cc2)NC(=O)[C@@H]2CSSC[C@H](NC1=O)C(=O)N[C@@H](Cc1ccc(O)cc1)C(=O)N[C@@H](CCCCN)C(=O)N[C@@H](CCCCN)C(=O)N[C@H](C(=O)N[C@@H](CCCCN)C(N)=O)CSSC[C@H](NC(=O)[C@H](Cc1c[nH]c3ccccc13)NC(=O)[C@@H](N)CCCCN)C(=O)N[C@@H](Cc1ccccc1)C(=O)N[C@@H](CCCCN)C(=O)N[C@@H](C(C)C)C(=O)N2	Escherichia coli	broth dilution	K12 BW25113, Mueller-Hinton II broth	18 h, 37 °C	MIC	3.91 µg/mL
CO[C@@H](C(N)=O)[C@H](NC(=O)c1ccc(NC(=O)[C@@H](N)Cc2ccc(O)cc2)cc1)C(=O)Nc1ccc(C(=O)Nc2ccc(C(=O)Nc3ccc(C(=O)O)c(O)c3OC(C)C)c(O)c2OC(C)C)cc1	Escherichia coli	–	pentapeptide repeat protein clone	16 h, 37 °C	MIC	> 16 µg/mL
CC(C)C[C@H](NC(=O)[C@@H](NC(=O)[C@H](CCCCN)NC(=O)[C@H](CCCCN)NC(=O)[C@H](CC(C)C)NC(=O)[C@H](Cc1c[nH]c2ccccc12)NC(=O)[C@H](CCCCN)NC(=O)[C@H](Cc1c[nH]c2ccccc12)NC(=O)[C@H](CC(C)C)NC(=O)[C@H](CCCCN)NC(=O)[C@H](CCCCN)NC(=O)[C@@H](N)C(C)C)C(C)C)C(N)=O	Escherichia coli	–	–	24 h, 37 °C, Mueller-Hinton broth, MgCl2 1 mM	MIC	32 µM
CC[C@H](C)[C@H](NC(=O)[C@@H](CCCNC(=N)N)NC(=O)[C@H](CCCNC(=N)N)NC(=O)[C@@H]1CCCN1C(=O)[C@@H]1CCCN1C(=O)[C@H](CCCNC(=N)N)NC(=O)[C@@H]1CCCN1C(=O)[C@H](CCCNC(=N)N)NC(=O)[C@@H]1CCCN1C(=O)[C@H](CCSC)NC(=O)[C@H](Cc1ccc(O)cc1)NC(=O)[C@@H]1CCCN1C(=O)[C@@H]1CCCN1C(=O)[C@H](CCCCN)NC(=O)[C@H](CC(=O)O)NC(=O)[C@@H](N)C(C)C)C(=O)N[C@@H](Cc1ccc(O)cc1)C(=O)N[C@@H](CC(N)=O)C(=O)N[C@H](CCCNC(=N)N)C(N)=O	Escherichia coli	broth microdilution	MC4100	18 h, 37 °C, 25% MHB2	MIC	8 µg/mL
CC(=O)N[C@H](Cc1ccc(F)cc1)C(=O)N[C@@H](CCN)C(=O)N[C@H](C(=O)N[C@@H](CCN)C(=O)N[C@H]1CCNC(=O)[C@H]([C@@H](C)O)NC(=O)[C@H](CCN)NC(=O)[C@H](CCN)NC(=O)[C@H](CC(C)C)NC(=O)[C@@H](Cc2ccccc2)NC(=O)[C@H](CCN)NC1=O)[C@@H](C)O	Escherichia coli	broth microdilution	ATCC 25922, colistin-susceptible	–	MIC	0.25 to 0.5 µg/mL
CC[C@H](C)[C@H](NC(=O)[C@@H](CCCNC(=N)N)NC(=O)[C@H](CCCNC(=N)N)NC(=O)[C@@H]1CCCN1C(=O)[C@@H]1CCCN1C(=O)[C@H](CCCNC(=N)N)NC(=O)[C@@H]1CCCN1C(=O)[C@H](CCCNC(=N)N)NC(=O)[C@@H]1CCCN1C(=O)[C@H](CC(C)C)NC(=O)[C@H](Cc1c[nH]cn1)NC(=O)[C@@H]1CCCN1C(=O)[C@@H]1CCCN1C(=O)[C@H](CCCCN)NC(=O)[C@H](CC(=O)O)NC(=O)[C@@H](N)C(C)C)C(=O)N[C@@H](Cc1ccc(O)cc1)C(=O)N[C@@H](CC(N)=O)C(=O)N[C@H](CCCNC(=N)N)C(N)=O	Escherichia coli	broth microdilution	BW25113	18 h, 37 °C, 25% MHB2	MIC	4 µg/mL
O=C1NC2(CC2)COc2ncc(F)cc2[C@H]2COCCN2c2ccn3ncc1c3n2	–	–	Sprague-Dawley rat, male, adrenals	oral, 10 mg/kg/day, 4 weeks dosing, end of recovery	organ-to-body weight ratio	0.012 ± 0.002%
CC[C@H](C)[C@H](NC(=O)[C@H](CCCNC(=N)N)NC(=O)[C@H]1CCCN1C(=O)[C@H](Cc1ccc(O)cc1)NC(=O)[C@@H](NC(=O)[C@@H](NC(=O)[C@H](CCCNC(=N)N)NC(=O)[C@H](Cc1ccccc1)NC(=O)[C@@H](NC(=O)[C@H](Cc1c[nH]c2ccccc12)NC(=O)[C@H](Cc1c[nH]c2ccccc12)NC(=O)c1ccccc1)C(C)C)C(C)C)C(C)C)C(=O)N[C@H](C(=O)N[C@@H](Cc1ccc(O)cc1)C(=O)N[C@@H](CCCNC(=N)N)C(=O)N[C@@H](CCCNC(=N)N)C(=O)N[C@H](C(=O)N[C@@H](CCCNC(=N)N)C(=O)N[C@@H](Cc1c[nH]c2ccccc12)C(=O)N[C@H](C(=O)NCC(=O)N1CCC[C@H]1C(=O)N[C@@H](CCCCN)C(=O)N[C@@H](CCCCN)C(N)=O)[C@@H](C)O)C(C)C)C(C)C	Escherichia coli	bacterial growth, broth dilution, OD600	DH5α, LB medium	16 h, 37 °C	MIC	25 µM
CC[C@H](C)[C@H](NC(=O)[C@H](C)NC(=O)[C@@H](NC(=O)[C@H](CC(=O)O)NC(=O)[C@H](CCCCN)NC(=O)[C@H](CO)NC(=O)[C@@H](NC(=O)[C@H](CC(N)=O)NC(=O)[C@H](C)NC(=O)[C@@H](NC(=O)[C@H](CCC(=O)O)NC(=O)[C@H](CCCCN)NC(=O)[C@@H](NC(=O)[C@@H](NC(=O)[C@H](Cc1c[nH]cn1)NC(=O)[C@H](CCCCN)NC(=O)[C@@H](NC(=O)[C@H](CCCCN)NC(=O)[C@H](CCCCN)NC(=O)[C@@H](NC(=O)[C@H](CC(C)C)NC(=O)[C@H](CCCCN)NC(=O)[C@H](CC(N)=O)NC(=O)[C@H](Cc1ccccc1)NC(=O)[C@H](CCCNC(=N)N)NC(=O)[C@H](CCCCN)NC(=O)[C@H](CCCNC(=N)N)NC(=O)[C@H](Cc1ccccc1)NC(=O)CN)C(C)C)C(C)C)[C@@H](C)O)[C@@H](C)CC)[C@@H](C)O)C(C)C)C(C)C)C(=O)N[C@H](C(=O)N[C@@H](C)C(=O)NCC(=O)N[C@@H](CO)C(=O)NCC(=O)N[C@H](C(=O)N[C@@H](C)C(=O)N[C@H](C(=O)NCC(=O)N[C@@H](C)C(=O)N[C@@H](C)C(=O)N[C@@H](CCSC)C(N)=O)C(C)C)C(C)C)C(C)C	Escherichia coli	–	ATCC 25922, CAMHB with 10% mouse serum	150 mM NaCl	MIC	0.5 µg/mL
CC[C@H](C)[C@H](NC(=O)[C@@H](CCCNC(=N)N)NC(=O)[C@H](CCCNC(=N)N)NC(=O)[C@@H]1CCCN1C(=O)[C@@H]1CCCN1C(=O)[C@H](CCCCNC(=N)N)NC(=O)[C@@H]1CCCN1C(=O)[C@H](CCCNC(=N)N)NC(=O)[C@@H]1CCCN1C(=O)[C@H](CC(C)C)NC(=O)[C@H](Cc1ccc(O)cc1)NC(=O)[C@@H]1CCCN1C(=O)[C@@H]1CCCN1C(=O)[C@H](CCCCN)NC(=O)[C@H](CC(=O)O)NC(=O)[C@@H](N)C(C)C)C(=O)N[C@@H](Cc1ccc(O)cc1)C(=O)N[C@@H](CC(N)=O)C(=O)N[C@H](CCCNC(=N)N)C(N)=O	Escherichia coli	broth microdilution	BW25113	18 h, 37 °C, 25% MHB2	MIC	8 µg/mL
CC[C@H](C)[C@H](NC(=O)[C@H](Cc1c[nH]c2ccccc12)NC(=O)[C@H](Cc1ccc(O)cc1)NC(=O)[C@H](CCCCN)NC(=O)[C@H](CC(C)C)NC(=O)[C@H](CO)NC(=O)[C@@H](N)Cc1ccccc1)C(=O)N[C@@H](CCCNC(=N)N)C(=O)N[C@@H](Cc1ccc(O)cc1)C(=O)N[C@@H](CCCCN)C(=O)N[C@@H](CCCNC(=N)N)C(=O)N[C@@H](CCC(N)=O)C(=O)NCC(=O)N[C@@H](C)C(=O)N[C@@H](C)C(=O)N[C@@H](CCCNC(=N)N)C(=O)N[C@@H](Cc1ccccc1)C(N)=O	Escherichia coli	broth dilution	ATCC 25922, Mueller-Hinton broth	24 h, 37 °C	MIC	25 µM
CC[C@H](C)[C@H](NC(=O)[C@@H](CCCNC(=N)N)NC(=O)[C@H](CCCNC(=N)N)NC(=O)[C@@H](NC(=O)[C@H](Cc1c[nH]c2ccccc12)NC(=O)[C@H](CCCNC(=N)N)NC(=O)[C@@H]1CCCN1C(=O)[C@H](CCCNC(=N)N)NC(=O)[C@@H]1CCCN1C(=O)[C@H](CC(C)C)NC(=O)[C@H](Cc1ccc(O)cc1)NC(=O)[C@@H]1CCCN1C(=O)[C@@H]1CCCN1C(=O)[C@H](CCCCN)NC(=O)[C@H](CC(=O)O)NC(=O)[C@@H](N)C(C)C)C(C)C)C(=O)N[C@@H](Cc1ccc(O)cc1)C(=O)N[C@@H](CC(N)=O)C(=O)N[C@H](CCCNC(=N)N)C(N)=O	Escherichia coli	broth microdilution	BW25113	18 h, 37 °C, 25% MHB2	MIC	16 µg/mL
CCC(CC)c1cc(C2CN3CCC2CC3CNC)nc(-c2ccncc2)n1 (centres unmarked)	Escherichia coli	microbial growth, broth dilution	ATCC25922	–	MIC	64 µg/mL
CC(C)C[C@@H](NC(=O)[C@H](NC(=O)[C@@H](CCCCN)NC(=O)[C@@H](CCCCN)NC(=O)[C@@H](CC(C)C)NC(=O)[C@@H](Cc1c[nH]c2ccccc12)NC(=O)[C@@H](CCCCN)NC(=O)[C@@H](CC(C)C)NC(=O)[C@@H](CC(C)C)NC(=O)[C@@H](CCCCN)NC(=O)[C@@H](CCCCN)NC(=O)[C@H](N)C(C)C)C(C)C)C(N)=O	Escherichia coli	–	–	24 h, 37 °C, Mueller-Hinton broth, FeCl3 4 µM	MIC	16 µM
CC[C@H](C)[C@H](NC(=O)[C@@H](CCCNC(=N)N)NC(=O)[C@H](CCCNC(=N)N)NC(=O)[C@H](CCC(N)=O)NC(=O)[C@H](Cc1c[nH]c2ccccc12)NC(=O)[C@H](CCCNC(=N)N)NC(=O)[C@@H]1CCCN1C(=O)[C@H](CCCNC(=N)N)NC(=O)[C@@H]1CCCN1C(=O)[C@H](CC(C)C)NC(=O)[C@H](Cc1ccc(O)cc1)NC(=O)[C@@H]1CCCN1C(=O)[C@@H]1CCCN1C(=O)[C@H](CCCCN)NC(=O)[C@H](CC(=O)O)NC(=O)[C@@H](N)C(C)C)C(=O)N[C@@H](Cc1ccc(O)cc1)C(=O)N[C@@H](CC(N)=O)C(=O)N[C@H](CCCNC(=N)N)C(N)=O	Escherichia coli	broth microdilution	ATCC 25922	18 h, 37 °C, 25% MHB2	MIC	8 µg/mL
CC1(C)[C@H](NC(=O)/C(=N\OC2(C(=O)O)CC2)c2nsc(N)n2)C(=O)N1OS(=O)(=O)O	Escherichia coli	agar dilution	CDC 1001728, NDM-1	–	MIC	4 µg/mL
CC(C)C[C@@H]1NC(=O)[C@H](CCCCN)NC(=O)C(N)CCC=CCCC(C(N)=O)NC(=O)[C@H](CCCCN)NC(=O)[C@H](CC(C)C)NC(=O)[C@H](CCCCN)NC(=O)C2CCC=CCCC(NC(=O)[C@H](CCCCN)NC1=O)C(=O)N[C@@H](CCCCN)C(=O)N1CCC[C@@H]1C(=O)NCC(=O)N[C@@H](CCCCN)C(=O)N2 (some centres unmarked)	Escherichia coli	broth microdilution	ATCC 25922, Mueller-Hinton broth	18 h, 37 °C	MIC	32 µM
CC1(C)[C@H](NC(=O)/C(=N\OCC(=O)N2CCC[C@@H]2C(=O)O)c2nsc(N)n2)C(=O)N1OS(=O)(=O)O	Escherichia coli	agar dilution	08-85, mcr-1	–	MIC	64 µg/mL
O=C(O)CN(CC(=O)O)CP(=O)(O)O	Escherichia coli	–	ATCC 25922, no carbapenemase	32 µg/mL, MIC of meropenem, with: meropenem	MIC	≤ 0.0625 µg/mL

A few entries again:
SMILES	target or system	test	test system	setting	quantity	result
CC(C)C[C@H](NC(=O)[C@@H](NC(=O)[C@H](CCCCN)NC(=O)[C@H](CCCCN)NC(=O)[C@H](CC(C)C)NC(=O)[C@H](Cc1c[nH]c2ccccc12)NC(=O)[C@H](CCCCN)NC(=O)[C@H](Cc1c[nH]c2ccccc12)NC(=O)[C@H](CC(C)C)NC(=O)[C@H](CCCCN)NC(=O)[C@H](CCCCN)NC(=O)[C@@H](N)C(C)C)C(C)C)C(N)=O	Escherichia coli	–	–	24 h, 37 °C, Mueller-Hinton broth, MgCl2 1 mM	MIC	32 µM
CC[C@H](C)[C@H](NC(=O)[C@@H](CCCNC(=N)N)NC(=O)[C@H](CCCNC(=N)N)NC(=O)[C@@H]1CCCN1C(=O)[C@@H]1CCCN1C(=O)[C@H](CCCNC(=N)N)NC(=O)[C@@H]1CCCN1C(=O)[C@H](CCCNC(=N)N)NC(=O)[C@@H]1CCCN1C(=O)[C@H](CCSC)NC(=O)[C@H](Cc1ccc(O)cc1)NC(=O)[C@@H]1CCCN1C(=O)[C@@H]1CCCN1C(=O)[C@H](CCCCN)NC(=O)[C@H](CC(=O)O)NC(=O)[C@@H](N)C(C)C)C(=O)N[C@@H](Cc1ccc(O)cc1)C(=O)N[C@@H](CC(N)=O)C(=O)N[C@H](CCCNC(=N)N)C(N)=O	Escherichia coli	broth microdilution	MC4100	18 h, 37 °C, 25% MHB2	MIC	8 µg/mL
